# Results gathered from unrelated publications.
# Protocols differ between the studies behind these lines. Numbers after ± are the reported error.
# Target: Cytoplasmic tyrosine-protein kinase BMX (BMX, Homo sapiens, UniProt P51813)
# Sequence (P51813 1-675, as in one of the studies): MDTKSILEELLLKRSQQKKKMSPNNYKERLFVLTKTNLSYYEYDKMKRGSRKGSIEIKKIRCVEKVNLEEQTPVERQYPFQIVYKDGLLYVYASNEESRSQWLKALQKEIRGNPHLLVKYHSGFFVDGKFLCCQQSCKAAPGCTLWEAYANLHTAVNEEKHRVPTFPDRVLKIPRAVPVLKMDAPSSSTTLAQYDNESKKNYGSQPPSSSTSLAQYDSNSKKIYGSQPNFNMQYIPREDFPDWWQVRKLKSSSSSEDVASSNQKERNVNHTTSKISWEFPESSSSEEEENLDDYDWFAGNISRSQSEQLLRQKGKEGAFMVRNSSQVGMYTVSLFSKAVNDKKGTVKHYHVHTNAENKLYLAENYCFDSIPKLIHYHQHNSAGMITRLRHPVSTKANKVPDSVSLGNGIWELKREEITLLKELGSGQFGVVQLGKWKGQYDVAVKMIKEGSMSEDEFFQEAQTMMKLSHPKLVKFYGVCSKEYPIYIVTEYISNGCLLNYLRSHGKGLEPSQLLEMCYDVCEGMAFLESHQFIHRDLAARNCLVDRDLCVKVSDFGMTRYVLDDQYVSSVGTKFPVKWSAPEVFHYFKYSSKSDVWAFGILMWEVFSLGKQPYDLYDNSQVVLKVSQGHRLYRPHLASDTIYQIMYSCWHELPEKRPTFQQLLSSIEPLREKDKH
Compound,assay,conditions,scale,quantity,value
O=C(NC1CCC1)c1ccc2nc(-c3cccc(NS(=O)(=O)NCCN4CCCCC4)c3)cn2c1,enzyme activity,10 µM,,remaining activity,87%
Cc1nc(Nc2ncc(C(=O)Nc3c(C)cccc3Cl)s2)cc(N2CC[C@H](O)C2)n1,,0.001 µM,,inhibition,77%
CNc1ncc2c(/C=C/C(=O)N3CCC(OC)CC3)nn(Cc3cccc(C(F)(F)F)c3)c2n1,"kinase activity, inhibitor",1 µM,relative to: untreated control,remaining activity,106%
[2H]c1cc(C)c(NC(=O)c2cnc(Nc3cc(N4CCCCC4)nc(C)n3)s2)c(Cl)c1,,0.01 µM,,inhibition,> 90%
CC(C)(C=C(C#N)C(=O)N1CCC[C@H]1Cn1nc(-c2ccc(Oc3ccccc3)cc2F)c2c(N)ncnc21)N1CCOCC1,fluorescence competition,,,residence time,780 ± 240 min
C=CC(=O)N1CCC(COCC(=O)N2CCN(c3nc(-c4cnc(N)nc4C(F)F)nc(N4CCOC[C@@H]4C)n3)CC2)CC1,KINOMEscan,1 µM,,remaining binding,96%
N#C/C(=C\C1CC1)C(=O)N1CCC[C@@H]1Cn1nc(-c2ccc(Oc3ccccc3)cc2F)c2c(N)ncnc21,fluorescence competition,,,residence time,480 ± 126 min
COc1cc(F)ccc1-c1ncnc(Nc2cccc(C[S@](C)(=N)=O)c2)n1,kinase activity,"10 µM, together with: 10 µM ATP",,remaining activity,36%
